Measured values of several laboratories.
± marks the error that the study gave.

SMILES	test	test system	conditions	tissue uptake [%ID/g]
O=C(O)CC[C@H](NC(=O)O[C@@H](CCCCNC(=O)c1ccc([18F])cc1)C(=O)O)C(=O)O		mouse, PC-3 PIP/flu xenografts, bone	60 min	0.72 ± 0.31
N=C(N)NCc1ccc(C(=O)NCCCC[C@H](NC(=O)CCCCCCC(=O)NCCCC[C@H](NC(=O)N[C@@H](CCC(=O)O)C(=O)O)C(=O)O)C(=O)O)cc1[131I]		SCID mouse, PC-3 xenografts, spleen	2 h	3.41 ± 2.01
C[S]1CC[S]2CC[P](CO)(CO)[99Tc+]12.[C-]#[O+].[C-]#[O+].[C-]#[O+]		female CF-1 mouse, large intestine	intravenous, 4 h	58.2
N=C(N)NCc1ccc(C(=O)NCCCC[C@H](NC(=O)N[C@@H](CCC(=O)O)C(=O)O)C(=O)O)cc1[131I]		SCID mouse, PC-3 xenografts, bone	21 h	0.03 ± 0.01
COc1cc2ncnc(Oc3cccc(N[11C](=O)Nc4cc(C(C)(C)C(F)(F)F)on4)c3)c2cc1OC		Balb/c nude mouse, female, A375 melanoma xenograft, pancreas	6.6 MBq, 30 min	5.24 ± 0.19
N=C(N)NCc1ccc(C(=O)NCCCC[C@H](NC(=O)N[C@@H](CCC(=O)O)C(=O)O)C(=O)O)cc1[211At]		SCID mouse, PC-3 xenografts, muscle	4 h	0.23 ± 0.1
CN[C@](C)(C[18F])C(=O)O		SCID mouse DU-145 xenograft, pancreas	120 min post injection	18 ± 5.1
C=Cc1cc(O)cc2nc(-c3ccc(O)c([76Br])c3)oc12		female C57BL/6 mouse, spleen	3 h, high dose	0.05 ± 0.01
CCCC[C@H](NC(=O)CN1CCC(NC(=O)CN2CCC(NC(=O)CN3CCN(CC(=O)O)CCN(CC(=O)O)CCN(CC(=O)O)CC3)CC2)CC1)C(=O)N[C@H]1CC(=O)NCCCC[C@@H](C(N)=O)NC(=O)[C@H](Cc2c[nH]c3ccccc23)NC(=O)[C@H](CCCNC(=N)N)NC(=O)[C@@H](Cc2ccccc2)NC(=O)[C@H](Cc2c[nH]cn2)NC1=O [gallium-68 labelled]	biodistribution	C57BL/6J mouse male tumour-bearing, adrenal glands	1 h post injection, unblocked	0.2 ± 0.1

Some of these lines once more:
SMILES	test	test system	conditions	tissue uptake [%ID/g]
O=C(O)CC[C@H](NC(=O)O[C@@H](CCCCNC(=O)c1ccc([18F])cc1)C(=O)O)C(=O)O		mouse, PC-3 PIP/flu xenografts, bone	60 min	0.72 ± 0.31
